# Experimental data gathered from unrelated publications.
# Each line is one published result; not all experiments were run side by side. Values joined by “and” are separate records of one study, mostly repeats; a detail may differ.
# Target: Tyrosine-protein kinase ABL2 (ABL2, Homo sapiens, UniProt P42684)
Structure (SMILES),assay,setting,how to read,measurement,result
COc1c(Cl)cccc1Nc1c(-c2ccncc2C#C[C@@]2(C)CCCN2C(=O)/C=C/CN(C)C)[nH]c2c1C(=O)NCC2,"binding, competition with immobilised ligand",3 µM,,remaining binding,82%
COc1c(OCCCN2CCOCC2)ccc2c1N=C(NC(=O)c1cnc(N)nc1)N1CCN=C21,"kinase activity, inhibitor",1 µM,relative to: untreated control,remaining activity,85%
CCN1CCN(Cc2ccc(NC(=O)c3ccc(C)c(NC(=O)c4cncc(-c5cccs5)c4)c3)cc2C(F)(F)F)CC1,"binding, competition with immobilised ligand",1 µM,,remaining binding,0.1%
NC(=O)C[C@H]1CCc2sc3ncnc(O[C@H]4CC[C@H](N5CCOCC5)CC4)c3c21,"enzyme activity, inhibitor",10 µM,,inhibition,5%
CCN1CCN(Cc2ccc(C(=O)Nc3ccc(C)c(NCc4cnc5[nH]ccc5c4OC)c3)cc2C(F)(F)F)CC1,"binding, competition with immobilised ligand",1 µM,,remaining binding,0.55%
CCn1cc(C(=O)O)c(=O)c2c(N)c(F)c(NC3CCCCC3)cc21,kinase activity,"0.1 µM, with: ATP at Km",,inhibition,-29.9%
O=C=[N][Ru-4]123([n]4c5ccc(O)cc5c5c6c(c7cc(F)c[n+]1c7c54)C(=O)NC6=O)[S+]1CC[S+]2CC[S+]3CC1 (stereo not shown),enzyme activity,"100 nM, human enzyme, with: 10 µM ATP",relative to: untreated,remaining activity,93%
CC(C)=CC1OC(C)(C)C2C=C3C(=O)C(Cl)=CC(O)C3C3C(O)C4OC4C(=O)C132 (stereo not shown),"cell-free assay, competition with immobilised ligand",10 µM,,remaining binding,91%
CNC(=O)C1CCN(c2cc(C)c(F)cc2NC(=O)c2ccc(-c3cc(O)ccc3C)c(C)c2)CC1,"binding, competition with immobilised ligand",1 µM,,remaining binding,16%
C=CC(=O)N1CCc2ccc(-n3c(=O)ccc4cnc5ccc(-c6cnn(C)c6)cc5c43)cc21,KINOMEscan,1 µM,relative to: DMSO control,remaining binding,100%
CN1CCN(Cc2ccc(-c3ccc(CO[C@H]4CCC[C@@H]4NC(=O)c4cc(-c5cnn(C)c5)cnc4N)cc3)cc2)CC1,"enzyme activity, inhibitor",0.1 µM,,inhibition,2%
Cc1cccc(O[C@H]2CCC[C@@H](C(C)CNCc3ccncc3)C2)c1 (relative stereo),"enzyme activity, inhibitor",10 µM,,inhibition,-8%
Nc1ncc(-c2cc(-c3cnn(CC(F)(F)F)c3)ncc2F)nc1C(=O)NC1CNCC(F)C1 (stereo not shown),enzyme activity,1 µM,relative to: DMSO control,remaining activity,96.2%
C=CC(=O)Nc1cccc(-c2cnc3[nH]cc(C(=O)NC(C)(C)C)c3n2)c1,kinase activity,0.1 µM,,inhibition,10% and 11%
Cc1cnc2nc1Nc1cccc(c1)COC/C=C/COCc1cc(ccc1OCCN1CCOCC1)N2,binding,0.1 µM,,remaining binding,77%
COc1cc(Nc2nc(C)cc(-c3cnn4nc(OC)ccc34)n2)cc(C(F)(F)F)c1,inhibitor,1 µM,relative to: control,remaining activity,76%

# Excerpt of the above:
Structure (SMILES),assay,setting,how to read,measurement,result
CN1CCN(Cc2ccc(-c3ccc(CO[C@H]4CCC[C@@H]4NC(=O)c4cc(-c5cnn(C)c5)cnc4N)cc3)cc2)CC1,"enzyme activity, inhibitor",0.1 µM,,inhibition,2%
Cc1cccc(O[C@H]2CCC[C@@H](C(C)CNCc3ccncc3)C2)c1 (relative stereo),"enzyme activity, inhibitor",10 µM,,inhibition,-8%
